Assay results collected from several papers.
± marks the error that the study gave.
UniProt P17655, sequence (whole entry, looked up): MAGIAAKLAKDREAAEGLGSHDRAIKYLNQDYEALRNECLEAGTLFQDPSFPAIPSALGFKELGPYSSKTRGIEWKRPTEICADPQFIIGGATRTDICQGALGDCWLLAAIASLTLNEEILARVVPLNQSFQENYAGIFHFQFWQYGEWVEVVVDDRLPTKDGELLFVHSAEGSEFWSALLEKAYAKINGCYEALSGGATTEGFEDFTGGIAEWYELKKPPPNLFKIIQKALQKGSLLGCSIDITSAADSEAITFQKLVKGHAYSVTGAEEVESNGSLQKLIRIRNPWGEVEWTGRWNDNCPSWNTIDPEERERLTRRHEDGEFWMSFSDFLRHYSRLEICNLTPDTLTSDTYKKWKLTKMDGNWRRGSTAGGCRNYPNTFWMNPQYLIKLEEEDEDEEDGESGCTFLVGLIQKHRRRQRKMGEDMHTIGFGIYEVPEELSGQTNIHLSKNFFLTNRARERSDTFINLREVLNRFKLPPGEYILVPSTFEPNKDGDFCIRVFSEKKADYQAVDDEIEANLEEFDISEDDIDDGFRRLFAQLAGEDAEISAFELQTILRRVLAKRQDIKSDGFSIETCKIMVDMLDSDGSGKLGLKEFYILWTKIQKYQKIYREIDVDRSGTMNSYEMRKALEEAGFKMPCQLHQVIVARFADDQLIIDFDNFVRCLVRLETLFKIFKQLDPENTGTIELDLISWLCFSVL

SMILES	tested on	test	conditions	scale	measurement	value
O=C(NCc1ccc(O)cc1)c1cn(Cc2ccc(F)cc2)c2ccc(Oc3ccccc3)cc2c1=O	MCF10		72 h		CC50	24.7 ± 2.9 µM
COc1ccc(C[C@H]2NC[C@H](O)[C@H]2OC(C)=O)cc1	HepG2	Click-iT HPG fluorescence	6.25 µM, 50 µM	relative to: DMSO vehicle	protein translation	decreased
O=C(NCc1ccccc1)c1cn(Cc2ccc(C(F)(F)F)cc2)c2ccc(Oc3ccccc3)cc2c1=O	MDA-MB-231-LM2-4	cytotoxicity	48 h		CC30	19.9 µM
NC(=O)CI	Calpain-2 catalytic subunit (Homo sapiens, UniProt P17655)	enzyme activity, inhibitor			IC50	80 µM
O=C(NCc1ccc(Cl)cc1)c1cn(Cc2ccc(Cl)cc2)c2ccc(Oc3ccccc3)cc2c1=O	T47D		72 h, 10% FBS		CC50	> 100 µM
C1=C2CCCN[C@H]2[C@@H]2C[C@H]1[C@H]1CCCCN1C2	MDCK	cell viability	2 days		CC50	> 80 µM

Some of these lines once more:
SMILES	tested on	test	conditions	scale	measurement	value
NC(=O)CI	Calpain-2 catalytic subunit (Homo sapiens, UniProt P17655)	enzyme activity, inhibitor			IC50	80 µM
